Results gathered from unrelated publications.
Compare with care: the assays were run in different laboratories. ± gives the spread as reported. Converted amounts (≈) assume the structure as drawn.

Compound | tested on | test | system | conditions | how to read | endpoint | value
COc1ncccc1-c1cnn2ccc(N3CCN(C(=O)OC(C)C)CC3)nc12 |  |  | mouse nerve ligation model, brain | oral, 30 mg/kg, 180 min after last dose, repeat dosing day 1 |  | drug concentration | 15 µM
CCN(CCO)CCCC(C)Nc1ccnc2cc(Cl)ccc12 (stereo not drawn) |  |  | newly diagnosed glioblastoma patients | oral, 400 mg/dose, grade 2, together with: radiotherapy and temozolomide |  | nausea patients | 14%
C[C@@H](NC(=O)N1C(=O)[C@H](Cc2ccnc(N)c2)[C@H]1C(=O)O)C1CCCCC1 |  |  | healthy adult Chinese volunteers | continuous intravenous infusion, 0.6 mg/kg/h, 5-day infusion, CTCAE 5.0 grading |  | incidence of elevated blood uric acid | 12.5%
O=C(Nc1ccccc1)C1CCN(C(=O)Oc2cccnc2)CC1 |  |  | healthy women | oral, 60 mg, 7 days |  | adverse event Dyspnoea | 0%
CC(C)(C)c1cc(-n2nc3ccccc3n2)c(O)c(C(C)(C)C)c1 |  | exposure assessment | human, age 1-2 years | spray sunscreen |  | mean daily dermal uptake | 6.92 ng/kg body weight/day
O=[N+]([O-])c1ccc2c(c1)S(=O)(=O)C=C2 |  |  | male C57BL/6 mice, blood | intraperitoneal, 20 mg/kg, day 8, group average |  | red cell distribution width CV | 0.14%
O=C(O)CCCOc1ccc(F)cc1-c1cc(-c2ccccc2C(F)(F)F)n(-c2ccccc2)n1 |  | item: adrenals | Crl:CD(SD) rats, female | iv, 25 µg/kg, 1 day |  | relative organ weight | 30.1 ± 3.3 mg%
CCN1[C@@H](C(=O)NC23CCC(C(=O)O)(CC2)CC3)[C@H](c2cccc(Cl)c2F)[C@]2(C(=O)Nc3cc(Cl)ccc32)C12CCCCC2 |  |  | patients with advanced solid tumours | oral, dose not given, all doses |  | Embolism incidence | 4.8%
CC(=O)c1c(C)c2cnc(Nc3ccc(C4CCN(CCS(C)(=O)=O)CC4)cn3)nc2n(C2CCCC2)c1=O |  |  | HR+/HER2- advanced breast cancer patients | oral, dose not given |  | patients with SAE | 15.8%
CN1CCN(c2ccc(Nc3nccc(-c4ccnc(NCc5ccccc5)c4)n3)cc2C(F)(F)F)CC1 |  |  | zebrafish embryos | 25 µM, 5 d |  | toxicity | 0 ± 15%
C=C(C)[C@@H]1CCC(C)=C[C@H]1c1c(O)cc(CCCCC)cc1O |  |  | human | 750 mg, trial 17074, together with: rifampicin 600 mg |  | subjects with AEs | 44%
c1ccc2cc3c(cc2c1)-c1cccc2cccc-3c12 |  |  | polyethylene-water partitioning | PAH compilation | reference: maximum over minimum K | literature range factor | 4
CC(C)C[C@@H]1NC(=O)CNC(=O)[C@H](CC(N)=O)NC(=O)[C@H](CCCNC(=N)N)NC(=O)[C@H](CCCCN)NC(=O)[C@@H]2CSSC[C@@H]3NC(=O)[C@H]([C@@H](C)O)NC(=O)CNC(=O)CNC(=O)[C@H](C(C)C)NC(=O)[C@@H]4CSSC[C@H](NC(=O)[C@H]([C@@H](C)O)NC(=O)[C@H](CSSC[C@H](NC(=O)[C@H](C(C)C)NC(=O)[C@@H]5CCCN5C1=O)C(=O)NCC(=O)N[C@@H](CCC(=O)O)C(=O)N[C@@H]([C@@H](C)O)C(=O)N4)NC(=O)CNC(=O)[C@@H]1CCCN1C(=O)[C@H]([C@@H](C)O)NC(=O)[C@H](CC(N)=O)NC3=O)C(=O)N[C@@H](CO)C(=O)N[C@@H](Cc1c[nH]c3ccccc13)C(=O)N1CCC[C@H]1C(=O)N[C@@H](C(C)C)C(=O)N2 |  | HPLC | ammonium bicarbonate | 180 µM, 7 days, pH 9.0, 25 °C, deamidation stability |  | remaining peptide | 86.1 ± 0.6%
Clc1cc(Cl)c(-c2cc(Cl)ccc2Cl)c(Cl)c1 |  |  | fresh water | 20 °C, S30-2 sampler, 30 µm |  | log K(PDMS-water) | 6.07 ± 0.01
CO[C@H]1C[C@@H]2CC[C@@H](C)[C@@](O)(O2)C(=O)C(=O)N2CCCC[C@H]2C(=O)O[C@H]([C@H](C)C[C@@H]2CC[C@@H](OC(=O)NCCOCCOCCOCCOCCOCCOCCOCCOCCC(=O)N3CCc4cc(Cn5nc(-c6ccc7oc(N)nc7c6)c6c(N)ncnc65)ccc4C3)[C@H](OC)C2)C[C@@H](O)[C@H](C)/C=C(\C)[C@@H](O)[C@@H](OC)C(=O)[C@H](C)C[C@H](C)/C=C/C=C/C=C/1C |  |  | patients with advanced solid tumours | intravenous, 8 mg weekly, any grade |  | dyspnoea incidence | 18.8%
CC(C)=CC1C(C(=O)OC(C#N)c2cccc(Oc3ccccc3)c2)C1(C)C (stereo not drawn) |  | item: CYP2C19 | human, age 6 months |  |  | enzyme contribution to clearance | 0.62%
CC(C)(O)c1cc(Nc2cc(Oc3cn(C4CC4)nc3C3CCOCC3)ccn2)ccn1 |  | Pyrexia | patients with advanced cancer, grade 4 glioma expansion | oral, 50 mg twice daily, grade ≥3, 2 weeks on/2 weeks off schedule |  | treatment-related adverse events | 0%
Nc1nc2cc(-c3ccc4ncc(C(=O)N5CCOCC5)n4c3)ccc2o1 |  |  | advanced solid tumour patients | dose not given, at least 1 AE, all schedules | reference: patients | patients with grade ≥3 AEs | 54%
CCNC(=O)N1CCN(CCCC(c2ccc(F)cc2)c2ccc(F)cc2)CC1 | Plasmodium falciparum |  | 7G8 |  |  | IC50 | 1.26 µM
C=CC(=O)N1CC[C@H](n2nc(C#Cc3cc(OC)cc(OC)c3)c3c(N)ncnc32)C1 |  |  | patients with advanced solid tumours | oral, dose not given, Diarrhea, any grade, QD, together with: phosphate-binding therapy |  | adverse drug reaction incidence | 17.5%
C[C@]12CC[C@H](n3ccnc3)CC1=CC[C@@H]1[C@@H]2CC[C@]2(C)C(n3cnc4ccccc43)=CC[C@@H]12.Cl |  |  | CD-1 mouse, male, plasma | intravenous, 1 mg/kg |  | t_half | ~180 min

Compound | tested on | test | system | conditions | how to read | endpoint | value
CCN1CCN(Cc2ccc(Nc3ncc(F)c(-c4cc(F)c5nc6n(c5c4)[C@H](C)CCC6)n3)nc2)CC1 |  |  | advanced solid tumour patients | dose not given, Phase Ia monotherapy |  | Nausea incidence, any grade | 33.3%
CC(C)C[C@@H]1NC(=O)CNC(=O)[C@H](CC(N)=O)NC(=O)[C@H](CCCNC(=N)N)NC(=O)[C@H]([C@@H](C)O)NC(=O)[C@@H]2CSSC[C@@H]3NC(=O)[C@H]([C@@H](C)O)NC(=O)CNC(=O)CNC(=O)[C@H](C(C)C)NC(=O)[C@@H]4CSSC[C@H](NC(=O)[C@H]([C@@H](C)O)NC(=O)[C@H](CSSC[C@H](NC(=O)[C@H](C(C)C)NC(=O)[C@@H]5CCCN5C1=O)C(=O)NCC(=O)N[C@@H](CCC(=O)O)C(=O)N[C@@H]([C@@H](C)O)C(=O)N4)NC(=O)CNC(=O)[C@@H]1CCCN1C(=O)[C@H](CCCCN)NC(=O)[C@H](CC(N)=O)NC3=O)C(=O)N[C@@H](CO)C(=O)N[C@@H](Cc1c[nH]c3ccccc13)C(=O)N1CCC[C@H]1C(=O)N[C@@H](C(C)C)C(=O)N2 |  | HPLC | ammonium bicarbonate 0.1 M | 180 µM, 14 days, pH 9.0, 37 °C, deamidation stability |  | remaining peptide | 57.9 ± 2%
CC[C@H](C)[C@H](NC(=O)[C@H](Cc1ccc(O)cc1)NC(=O)[C@@H]1CCCN1C(=O)[C@H](CCCNC(=N)N)NC(=O)[C@@H](N)CCCNC(=N)NC(=O)NCCOCCOCC[n+]1c(C)cc(/C=C/C=C/c2ccc(N(C)C)cc2)cc1C)C(=O)N[C@@H](CC(C)C)C(=O)O |  |  | PBS | pH 7.4 | reference: cresyl violet perchlorate | fluorescence quantum yield | 10%
COc1ncnn2ccc(-c3cnc4nc(C)n(Cc5nnc([C@@H](C)F)o5)c4c3)c12 |  |  | human | oral, dose not given, grade 2 |  | patients with nausea | 42.9%
Clc1cc(Cl)cc(-c2ccccc2)c1 |  |  | PDMS-water partitioning | PCB compilation | reference: maximum over minimum K | literature range factor | 1.3
CC[C@H](C)[C@@H]1NC(=O)[C@H](CCCNC(=N)N)NC(=O)C[C@@H](c2cccc3ccccc23)NC(=O)[C@@H]2CSSC[C@H](NC(=O)C[C@@H](c3cccc4ccccc34)NC(=O)[C@H](CCCNC(=N)N)NC(=O)[C@@H]3CCCN3C(=O)[C@@H]3CCCN3C1=O)C(=O)N[C@@H](Cc1ccccc1)C(=O)N1CCC[C@H]1C(=O)N[C@@H](CC(=O)O)C(=O)N[C@@H](CC(=O)O)C(=O)N[C@@H](Cc1ccccc1)C(=O)N2 |  | two-compartment model | athymic nude mice (Foxn1) | intravenous, 6 mg/kg |  | CL | 0.0025 mL/min
Cc1nonc1Cn1nnc2c(N3CC[C@H](O)C3)nc(C(C)(C)C)nc21 |  |  | C57BL/6 mice | oral, 2.8 mg/kg |  | dose-normalised AUC(0-inf) | 248 kg·ng·h/mL/mg
COc1cccc2c1CCCC2CCCN1CCN(C2CCCCC2)CC1 (stereo not drawn) |  |  | CD-1 mouse, male, plasma | intraperitoneal, 3 mg/kg |  | elimination rate constant | 6.85e-05 s⁻¹
CCOC(=O)C1=C[C@@H](OC(CC)CC)[C@H](NC(C)=O)[C@@H](N)C1 |  |  | Sprague-Dawley rat male, plasma and urine | oral, 30 mg/kg |  | volume of distribution | 104 mL
O=S(=O)(Nc1ccccc1)c1ccc(NC(=S)Nc2ccccc2)cc1 |  |  | male mouse, blood | oral, 20 mg/kg daily, 14 days |  | haematocrit | 44.5%
COc1cc2c(Oc3ccc4[nH]c(C)cc4c3F)ccnc2cc1OCC1(N)CC1 |  |  | paediatric recurrent refractory sarcoma | 10 mg |  | Nausea incidence | 0%
C[C@]1(CO)Cc2ncn(-c3ccc(C#N)c(Cl)c3)c2C(=O)O1 |  |  | human | 2 mg single dose |  | subjects with drug-related dysgeusia | 0%
O=C1Nc2cc3[nH]nc(-c4ccncc4)c3cc2CN1Cc1ccccc1 |  | CTCAE v4.03 | advanced solid tumour patients | intravenous, 0.45 mg/kg, schedules 1/2 |  | patients with cough | 0%
CN1CC[C@@H](c2c(O)cc(O)c3c(=O)cc(-c4ccc(C(F)(F)F)cc4Cl)oc23)[C@@H]1CO |  | item: Neutropenia | relapsed B-cell malignancies or AML | oral, 50 mg, grade 3-4, continuous dosing |  | patients with adverse event | 0%
CN(C)CCCC1(c2ccc(F)cc2)OCc2cc(C#N)ccc21 (stereo not drawn) | Plasmodium falciparum |  | 7G8 |  |  | IC50 | 6.31 µM
CC[C@H]1[C@@H](O)[C@@H]2[C@H](CC[C@]3(C)[C@@H]([C@H](C)CCNC(=O)NS(=O)(=O)c4ccc(C(C)(C)C)cc4)CC[C@@H]23)[C@@]2(C)CC[C@@H](O)C[C@@H]12 |  |  | human | dose not given, related to compound and quinidine |  | subjects with QT prolongation | 8.3%
COc1ccc(OC)c(/C=N/NC(=O)c2n[nH]c3c2CCC3)c1 | Gag-Pol polyprotein, integrase with LEDGF/p75 (gag-pol, Human immunodeficiency virus 1, UniProt P12497) | LEDGF/p75-integrase interaction, inhibitor, AlphaScreen |  |  |  | IC50 | > 50 µM
Cc1cccc(Cn2nc(C3CC3)c3c(NC(=O)c4cnc5cc(OCCN6CCN(C)CC6)ccn45)cccc32)n1 |  | CTCAE v4.03, item: blood CPK increased | advanced solid tumour patients | oral, dose not given, all cohorts, together with: pembrolizumab IV every 3 weeks |  | all-cause adverse events | 28.1%
CCNc1nc(N2CC(=O)Nc3cc(OC)ccc32)c2cccnc2n1 |  |  | DPBS | overnight, pH 7.4, room temperature |  | aqueous solubility | 23 to 25 µg/mL (≈ 65.6 to 71.4 µM)
Cc1cc(C)c(CNC(=O)c2cc(Cl)c3c(c2C)O[C@@](C)([C@H]2CC[C@H](N(C)C)CC2)O3)c(=O)[nH]1 |  |  | relapsed/refractory NHL patients | dose not given, trial, safety set, treatment-related TEAE grade 5 |  | incidence of Pneumocystis jirovecii pneumonia | 0%
COc1cc2c(cc1OC)CN(CCc1ccc(NC(=O)c3cccc4c(=O)c5cccc(OC)c5[nH]c34)cc1)CC2 |  |  | CD-1 mouse, male, lung | intraperitoneal, 3 mg/kg |  | elimination rate constant | 3.5e-05 s⁻¹

Some of these lines once more:
Compound | tested on | test | system | conditions | how to read | endpoint | value
COc1cc2c(cc1OC)CN(CCc1ccc(NC(=O)c3cccc4c(=O)c5cccc(OC)c5[nH]c34)cc1)CC2 |  |  | CD-1 mouse, male, lung | intraperitoneal, 3 mg/kg |  | elimination rate constant | 3.5e-05 s⁻¹
CN(C)CCCC1(c2ccc(F)cc2)OCc2cc(C#N)ccc21 (stereo not drawn) | Plasmodium falciparum |  | 7G8 |  |  | IC50 | 6.31 µM
CCNC(=O)N1CCN(CCCC(c2ccc(F)cc2)c2ccc(F)cc2)CC1 | Plasmodium falciparum |  | 7G8 |  |  | IC50 | 1.26 µM
CC[C@H](C)[C@@H]1NC(=O)[C@H](CCCNC(=N)N)NC(=O)C[C@@H](c2cccc3ccccc23)NC(=O)[C@@H]2CSSC[C@H](NC(=O)C[C@@H](c3cccc4ccccc34)NC(=O)[C@H](CCCNC(=N)N)NC(=O)[C@@H]3CCCN3C(=O)[C@@H]3CCCN3C1=O)C(=O)N[C@@H](Cc1ccccc1)C(=O)N1CCC[C@H]1C(=O)N[C@@H](CC(=O)O)C(=O)N[C@@H](CC(=O)O)C(=O)N[C@@H](Cc1ccccc1)C(=O)N2 |  | two-compartment model | athymic nude mice (Foxn1) | intravenous, 6 mg/kg |  | CL | 0.0025 mL/min
CN1CC[C@@H](c2c(O)cc(O)c3c(=O)cc(-c4ccc(C(F)(F)F)cc4Cl)oc23)[C@@H]1CO |  | item: Neutropenia | relapsed B-cell malignancies or AML | oral, 50 mg, grade 3-4, continuous dosing |  | patients with adverse event | 0%
